Measurements gathered from unrelated publications.
Numbered parts are unrelated; each lists some results of a single study.
UniProt P08172, sequence (whole entry, looked up): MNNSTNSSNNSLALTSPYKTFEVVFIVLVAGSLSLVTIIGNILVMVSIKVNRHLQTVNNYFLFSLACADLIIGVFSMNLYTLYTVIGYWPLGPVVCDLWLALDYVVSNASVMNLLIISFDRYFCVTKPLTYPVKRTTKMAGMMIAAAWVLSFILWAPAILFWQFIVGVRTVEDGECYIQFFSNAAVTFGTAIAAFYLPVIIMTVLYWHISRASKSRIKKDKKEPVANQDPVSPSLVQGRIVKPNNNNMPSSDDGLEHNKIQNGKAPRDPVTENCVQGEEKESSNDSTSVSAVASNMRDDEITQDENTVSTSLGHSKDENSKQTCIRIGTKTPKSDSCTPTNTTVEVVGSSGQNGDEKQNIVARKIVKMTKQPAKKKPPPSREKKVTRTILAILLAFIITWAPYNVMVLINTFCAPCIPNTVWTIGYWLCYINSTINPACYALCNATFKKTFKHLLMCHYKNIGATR
UniProt P28223, sequence (whole entry, looked up): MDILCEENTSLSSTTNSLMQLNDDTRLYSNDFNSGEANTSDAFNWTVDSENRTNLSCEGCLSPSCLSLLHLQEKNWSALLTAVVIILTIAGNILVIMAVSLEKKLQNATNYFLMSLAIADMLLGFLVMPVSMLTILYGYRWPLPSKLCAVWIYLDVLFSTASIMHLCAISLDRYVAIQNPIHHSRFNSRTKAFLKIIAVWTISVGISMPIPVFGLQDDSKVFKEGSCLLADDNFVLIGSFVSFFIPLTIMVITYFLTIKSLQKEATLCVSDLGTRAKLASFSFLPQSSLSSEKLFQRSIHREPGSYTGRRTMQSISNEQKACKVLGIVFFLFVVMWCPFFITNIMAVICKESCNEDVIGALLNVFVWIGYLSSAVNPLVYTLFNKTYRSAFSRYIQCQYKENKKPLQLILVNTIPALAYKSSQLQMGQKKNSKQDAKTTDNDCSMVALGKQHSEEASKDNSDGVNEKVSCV
UniProt Q9Y5N1, sequence (whole entry, looked up): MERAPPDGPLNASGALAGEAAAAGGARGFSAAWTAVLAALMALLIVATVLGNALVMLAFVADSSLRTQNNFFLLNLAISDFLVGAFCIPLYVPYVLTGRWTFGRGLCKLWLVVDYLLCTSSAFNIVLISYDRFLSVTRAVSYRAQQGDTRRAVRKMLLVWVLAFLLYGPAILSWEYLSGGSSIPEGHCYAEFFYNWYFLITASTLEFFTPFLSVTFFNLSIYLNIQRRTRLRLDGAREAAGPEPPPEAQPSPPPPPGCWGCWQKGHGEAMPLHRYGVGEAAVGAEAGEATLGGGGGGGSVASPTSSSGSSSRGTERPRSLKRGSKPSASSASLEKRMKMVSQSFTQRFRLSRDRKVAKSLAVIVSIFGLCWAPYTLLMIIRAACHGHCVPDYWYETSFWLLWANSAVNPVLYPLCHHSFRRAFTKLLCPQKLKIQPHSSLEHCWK
UniProt P08173, sequence (whole entry, looked up): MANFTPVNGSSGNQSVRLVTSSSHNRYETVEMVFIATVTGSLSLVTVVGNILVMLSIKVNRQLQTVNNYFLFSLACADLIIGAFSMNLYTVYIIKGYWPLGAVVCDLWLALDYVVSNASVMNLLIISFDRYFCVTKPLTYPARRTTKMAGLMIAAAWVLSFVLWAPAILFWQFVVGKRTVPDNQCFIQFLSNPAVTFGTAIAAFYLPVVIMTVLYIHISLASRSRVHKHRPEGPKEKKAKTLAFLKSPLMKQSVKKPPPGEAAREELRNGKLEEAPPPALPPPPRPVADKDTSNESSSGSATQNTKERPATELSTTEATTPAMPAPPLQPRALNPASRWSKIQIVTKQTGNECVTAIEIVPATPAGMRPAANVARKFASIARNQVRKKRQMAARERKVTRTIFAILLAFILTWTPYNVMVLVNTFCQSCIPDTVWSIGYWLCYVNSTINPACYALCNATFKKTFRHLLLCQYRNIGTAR
UniProt P25103, sequence (whole entry, looked up): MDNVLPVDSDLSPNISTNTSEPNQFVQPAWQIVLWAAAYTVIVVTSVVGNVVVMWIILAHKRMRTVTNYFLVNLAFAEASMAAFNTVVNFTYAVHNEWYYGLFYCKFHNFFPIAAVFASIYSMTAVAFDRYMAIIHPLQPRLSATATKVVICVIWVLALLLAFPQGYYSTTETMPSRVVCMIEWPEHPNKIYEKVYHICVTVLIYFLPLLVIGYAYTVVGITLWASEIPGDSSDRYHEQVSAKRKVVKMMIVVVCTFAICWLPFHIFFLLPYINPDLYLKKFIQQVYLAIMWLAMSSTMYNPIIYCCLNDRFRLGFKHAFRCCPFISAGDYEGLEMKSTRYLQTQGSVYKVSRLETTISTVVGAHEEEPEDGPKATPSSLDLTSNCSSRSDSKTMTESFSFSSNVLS
UniProt Q9NZH0, sequence (whole entry, looked up): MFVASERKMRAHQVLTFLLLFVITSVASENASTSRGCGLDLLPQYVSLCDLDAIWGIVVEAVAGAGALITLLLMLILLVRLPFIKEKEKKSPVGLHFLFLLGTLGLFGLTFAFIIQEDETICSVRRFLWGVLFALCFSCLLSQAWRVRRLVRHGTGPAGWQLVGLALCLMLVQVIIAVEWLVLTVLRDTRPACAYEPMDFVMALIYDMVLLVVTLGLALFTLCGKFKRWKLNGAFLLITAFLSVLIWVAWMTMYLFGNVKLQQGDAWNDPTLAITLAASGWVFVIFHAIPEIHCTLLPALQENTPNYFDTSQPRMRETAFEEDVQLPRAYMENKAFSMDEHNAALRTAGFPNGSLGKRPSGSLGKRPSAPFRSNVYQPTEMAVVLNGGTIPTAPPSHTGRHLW
UniProt P47775, sequence (whole entry, looked up): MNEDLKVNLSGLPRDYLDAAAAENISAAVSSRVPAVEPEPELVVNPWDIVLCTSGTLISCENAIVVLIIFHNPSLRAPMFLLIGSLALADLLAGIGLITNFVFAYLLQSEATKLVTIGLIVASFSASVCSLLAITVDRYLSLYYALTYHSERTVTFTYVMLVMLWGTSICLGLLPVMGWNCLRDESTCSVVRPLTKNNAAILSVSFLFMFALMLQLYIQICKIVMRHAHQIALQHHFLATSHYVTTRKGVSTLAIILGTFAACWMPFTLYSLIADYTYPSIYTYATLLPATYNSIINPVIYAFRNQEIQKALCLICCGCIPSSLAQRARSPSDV
UniProt Q9GZQ6, sequence (whole entry, looked up): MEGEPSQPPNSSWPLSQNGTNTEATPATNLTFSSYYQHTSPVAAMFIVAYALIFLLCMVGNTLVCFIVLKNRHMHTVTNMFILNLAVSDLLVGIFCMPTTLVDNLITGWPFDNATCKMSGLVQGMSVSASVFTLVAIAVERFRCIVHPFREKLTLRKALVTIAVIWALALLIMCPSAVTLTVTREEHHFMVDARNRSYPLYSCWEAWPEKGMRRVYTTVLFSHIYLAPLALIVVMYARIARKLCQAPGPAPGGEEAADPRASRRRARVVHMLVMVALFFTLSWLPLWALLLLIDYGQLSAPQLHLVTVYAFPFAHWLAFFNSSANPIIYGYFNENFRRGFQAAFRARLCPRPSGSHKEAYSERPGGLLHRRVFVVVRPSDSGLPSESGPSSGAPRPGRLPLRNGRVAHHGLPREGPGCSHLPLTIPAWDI
UniProt O00155, sequence (whole entry, looked up): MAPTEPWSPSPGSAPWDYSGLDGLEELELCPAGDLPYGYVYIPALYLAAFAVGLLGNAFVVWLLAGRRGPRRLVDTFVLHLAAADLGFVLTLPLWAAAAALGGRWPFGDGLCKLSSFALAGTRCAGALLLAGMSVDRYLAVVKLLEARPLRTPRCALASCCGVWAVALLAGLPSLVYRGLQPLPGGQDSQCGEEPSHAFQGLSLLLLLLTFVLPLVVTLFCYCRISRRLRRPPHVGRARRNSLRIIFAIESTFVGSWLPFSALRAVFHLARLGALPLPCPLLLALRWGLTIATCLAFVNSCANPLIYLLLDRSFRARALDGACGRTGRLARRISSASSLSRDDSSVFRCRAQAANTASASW

Series 1 — effect on: β-arrestin recruitment; action: agonist; method: PRESTO-Tango; tested at: 10 µM; baseline: untreated
SMILES: N=C(N)NC(=O)c1cnn(-c2cccc3ncccc23)c1C1CC1
| target | fold over basal |
| --- | --- |
| CHRM4 (Homo sapiens, UniProt P08173) | 1 |
| TACR1 (Homo sapiens, UniProt P25103) | 1.48 fold |
| NPFFR1 (Homo sapiens, UniProt Q9GZQ6) | 0.93 |
| CCR1 (Homo sapiens, UniProt P32246) | 0.77 |
| G-protein coupled receptor 12 (GPR12, Homo sapiens, UniProt P47775) | 1.42 |
| Calcitonin receptor, isoform b (CALCR, Homo sapiens, UniProt P30988) | 0.93 |
| HTR2A (Homo sapiens, UniProt P28223) | 0.79 |
| G-protein coupled receptor family C group 5 member B (GPRC5B, Homo sapiens, UniProt Q9NZH0) | 0.91 |
| CHRM2 (Homo sapiens, UniProt P08172) | 1.01 |
| HRH3 (Homo sapiens, UniProt Q9Y5N1) | 0.75 fold |
| GRM4 (Homo sapiens, UniProt Q14833) | 1.64 fold |
| Probable G-protein coupled receptor 25 (GPR25, Homo sapiens, UniProt O00155) | 0.87 |

Series 2 — effect on: binding; method: radioligand binding; tested at: 10 µM
Target: Beta-2 adrenergic receptor (ADRB2, Homo sapiens, UniProt P07550)
UniProt P07550, sequence (whole entry, looked up): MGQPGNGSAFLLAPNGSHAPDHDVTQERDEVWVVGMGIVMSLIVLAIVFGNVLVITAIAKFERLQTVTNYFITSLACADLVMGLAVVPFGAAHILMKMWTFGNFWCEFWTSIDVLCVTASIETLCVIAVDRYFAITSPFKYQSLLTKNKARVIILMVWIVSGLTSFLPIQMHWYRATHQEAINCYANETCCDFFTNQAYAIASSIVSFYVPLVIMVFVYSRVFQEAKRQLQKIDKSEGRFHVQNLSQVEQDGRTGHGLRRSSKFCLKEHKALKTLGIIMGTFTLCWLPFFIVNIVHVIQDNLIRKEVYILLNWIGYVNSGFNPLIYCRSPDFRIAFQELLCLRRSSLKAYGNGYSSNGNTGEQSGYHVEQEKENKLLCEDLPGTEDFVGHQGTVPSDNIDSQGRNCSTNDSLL
| Compound | inhibition |
| --- | --- |
| COCCc1ccc(-c2c(C)nc3c(N4CCOCC4)ccnn23)cn1 | -1.12% |
| COCc1nc2cnc3cc(-c4c(C)noc4C)c(OC[C@H]4CCNC4)cc3c2n1[C@H](C)c1ccccc1 | 18.4% |
| CCOCCn1cc(C(=O)Nc2ccc(-n3nc(-c4cccnc4)cc3C(F)(F)F)cn2)ccc1=O | -1.17% |
| CNC(=O)c1ccc(Nc2ncc(C(F)(F)F)c(NCc3nccnc3N(C)S(C)(=O)=O)n2)cc1 | -13.2% |
| CC1=C(C#N)C(c2ccc3c(c2)c(NC(=O)c2ccccc2C)nn3C)C(C#N)=C(C)N1 | -7.25% |
| Cc1cc(C)c(-n2ccn3nc(-c4cccnc4)cc23)cc1NC(=O)c1cc(C#N)cc(S(F)(F)(F)(F)F)c1 | 25.6% |
| CC(=O)Nc1nc(CN2CCC[C@H](Cc3cc(C)nc(C)c3)C2)cs1 | -8.1% |

Series 3 — effect on: enzyme activity; action: inhibitor; tested at: 0.5 µM; baseline: control
Target: Serine/threonine-protein kinase 17A (STK17A, Homo sapiens, UniProt Q9UEE5)
UniProt Q9UEE5, sequence (whole entry, looked up): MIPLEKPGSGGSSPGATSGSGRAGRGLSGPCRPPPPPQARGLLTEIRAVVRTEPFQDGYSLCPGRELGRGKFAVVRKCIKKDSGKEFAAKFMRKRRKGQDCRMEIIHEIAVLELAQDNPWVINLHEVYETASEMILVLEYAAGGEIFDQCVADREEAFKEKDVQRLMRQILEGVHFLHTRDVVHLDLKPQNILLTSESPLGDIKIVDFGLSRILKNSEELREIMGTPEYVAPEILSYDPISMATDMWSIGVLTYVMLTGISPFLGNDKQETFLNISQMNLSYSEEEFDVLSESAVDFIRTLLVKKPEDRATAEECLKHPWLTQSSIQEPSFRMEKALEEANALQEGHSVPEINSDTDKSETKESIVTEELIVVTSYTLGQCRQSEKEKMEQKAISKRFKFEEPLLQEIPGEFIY
| Compound | remaining activity |
| --- | --- |
| Cc1nc2cc3nc(-c4cccs4)cnc3cc2n1C | 80.5% |
| O=C1C(Cl)=C(N2C(=O)CCC2=O)C(=O)c2ccccc21 | 101% |
| C[C@@H]1CCN(C(=O)CC#N)C[C@@H]1N(C)c1ncnc2[nH]ccc12 | 106% |
| N#C/C(=C\c1ccc(O)c(O)c1)C(=O)NCc1ccccc1 | 98.8% |
| CCN(CC)C(=O)c1ccc(Nc2nc(OCC3CCCCC3)c3[nH]cnc3n2)cc1 | 59.8% |
| c1ccc(-c2[nH]ncc2-c2ccnc3ccccc23)nc1 | 117% |
| COc1cc2ncnc(Nc3ccc(O)c(Br)c3)c2cc1OC | 72.3% |
| O=C(NC(NC(=S)Nc1ccc(F)c([N+](=O)[O-])c1)C(Cl)(Cl)Cl)C(c1ccccc1)c1ccccc1 (stereo not shown) | 99.8% |
| c1ccc(-c2cnc(Nc3ccc(OCCN4CCCC4)cc3)s2)cc1 | 66.2% |
| N#Cc1c(NC(=O)c2cccc3ccccc23)sc2c1CCCC2 | 104% |
| O=C1c2ccccc2-c2n[nH]c3cccc1c23 | 29.1% |
| CCN(CC)CCNC(=O)c1c(C)[nH]c(/C=C2\C(=O)Nc3ccc(Cl)cc32)c1C | 16.1% |

Series 4 — species: human; medium: microsomes or S9; tested at: 2 µM; time: 0.5 h
| SMILES | remaining compound |
| --- | --- |
| Nc1oc(=O)c2ccccc2c1N1CCCc2ccccc21 | 54.4% |
| O=C(Cn1nc2c(cc1=O)CCCC2)NCC1CCC(C(=O)O)CC1 (stereo not shown) | 97.4% |
| C=CCc1c(O)ccc2[nH]cc(S(=O)(=O)c3ccc(C)cc3)c12 | 32.1% |
| CC(C)(C)N1CC(C(=O)NCCOc2ccc(-c3ccccc3)cc2)CC1=O (stereo not shown) | 24.5% |
| Clc1ccc(-c2noc(-c3ccc(Nc4ccc5c(c4)OCCO5)nn3)n2)cc1 | 70.7% |
| CCCNc1ccc2ncc(-c3ccc4[nH]ncc4c3)n2n1 | 31.2% |
| COCCNS(=O)(=O)c1cc(C(=O)O)cc(-c2cccc(F)c2F)c1 | > 99% |
| CCC(NC(=O)CCCc1ccc(Cl)cc1)c1ncnn1CC (stereo not shown) | 6.95% |
| Cc1cc(-c2[nH]c3[nH]c(=O)[nH]c(=O)c3c2-c2cc(C)sc2C)c(C)s1 | 26.9% |

A few entries again (series 1):
| target | fold over basal |
| --- | --- |
| G-protein coupled receptor family C group 5 member B (GPRC5B, Homo sapiens, UniProt Q9NZH0) | 0.91 |
| Probable G-protein coupled receptor 25 (GPR25, Homo sapiens, UniProt O00155) | 0.87 |
